Assay results from different studies.
Numbers after ± are the reported error.
UniProt P06276, sequence (whole entry, looked up): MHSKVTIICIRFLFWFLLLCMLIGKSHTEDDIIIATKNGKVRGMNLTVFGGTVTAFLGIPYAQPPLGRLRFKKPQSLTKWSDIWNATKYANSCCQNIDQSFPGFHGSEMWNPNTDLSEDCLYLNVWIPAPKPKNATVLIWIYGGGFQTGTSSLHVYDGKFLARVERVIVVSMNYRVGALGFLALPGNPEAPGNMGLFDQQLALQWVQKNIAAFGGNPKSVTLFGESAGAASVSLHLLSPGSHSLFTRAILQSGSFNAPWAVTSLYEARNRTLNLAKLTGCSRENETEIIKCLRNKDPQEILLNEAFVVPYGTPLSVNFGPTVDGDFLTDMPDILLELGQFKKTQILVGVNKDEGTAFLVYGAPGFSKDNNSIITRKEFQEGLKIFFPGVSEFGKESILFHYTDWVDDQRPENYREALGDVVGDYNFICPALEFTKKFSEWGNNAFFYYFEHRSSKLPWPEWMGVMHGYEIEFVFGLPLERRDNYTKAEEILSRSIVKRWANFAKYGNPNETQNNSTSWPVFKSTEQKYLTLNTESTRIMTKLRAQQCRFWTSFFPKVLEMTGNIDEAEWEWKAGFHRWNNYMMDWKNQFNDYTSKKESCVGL

For `Cc1cc(C)c(CNC(=O)c2cc(Cl)c3c(c2C)O[C@@](C)([C@H]2CC[C@H](N(C)C)CC2)O3)c(=O)[nH]1`, “incidence of blood LDH increased” read 0% (relapsed/refractory NHL patients; dose not given, trial, safety set, all TEAEs grade 5).
`COc1ccccc1OCC(O)CN1CCN(CC(=O)Nc2c(C)cccc2C)CC1` (stereo not shown) gave an IC50 of 5.01 µM (Plasmodium falciparum; 7G8).
The dyspnoea incidence of `CO[C@H]1C[C@@H]2CC[C@@H](C)[C@@](O)(O2)C(=O)C(=O)N2CCCC[C@H]2C(=O)O[C@H]([C@H](C)C[C@@H]2CC[C@@H](OC(=O)NCCOCCOCCOCCOCCOCCOCCOCCOCCC(=O)N3CCc4cc(Cn5nc(-c6ccc7oc(N)nc7c6)c6c(N)ncnc65)ccc4C3)[C@H](OC)C2)C[C@@H](O)[C@H](C)/C=C(\C)[C@@H](O)[C@@H](OC)C(=O)[C@H](C)C[C@H](C)/C=C/C=C/C=C/1C` is reported as 0% (patients with advanced solid tumours; intravenous, 16 mg weekly, grade 3 or higher).
For `NCCCC[C@@H]1NC(=O)[C@@H](Cc2c[nH]c3ccccc23)NC(=O)[C@H](c2ccccc2)NC(=O)[C@@H]2C[C@@H](OC(=O)NCCN)CN2C(=O)[C@H](Cc2ccccc2)NC(=O)[C@H](Cc2ccc(OCc3ccccc3)cc2)NC1=O`, “subjects with adverse event Diarrhoea” read 56% (healthy human volunteers; 600 µg twice daily).
Under “mean amount excreted in urine”, `N=C(N)NCCC[C@@H](NC(=O)[C@@H](N)Cc1ccccc1)C(=O)N[C@@H](Cc1ccccc1)C(=O)N[C@@H](CCCCN)C(N)=O` is recorded as 1.46e+06 ng (LC-MS; human; 25 mg, 11.83 h).
For `CN1CCN(c2ccc(Nc3nccc(-c4ccc([N+](=O)[O-])cc4)n3)cc2C(F)(F)F)CC1`, the toxicity was 18% (zebrafish embryos; 50 µM, 5 d).
With `COc1ccnc(C(=O)N[C@H]2COC(=O)[C@H](Cc3ccccc3)[C@@H](OC(=O)C(C)C)[C@H](C)OC2=O)c1OCOC(=O)C(C)C` the storage stability was 3 months (bovine liver; -18 °C).
`CC(=O)c1c(C)c2cnc(Nc3ccc(C4CCN(CCS(C)(=O)=O)CC4)cn3)nc2n(C2CCCC2)c1=O` — result for “elimination rate constant”: 4.17e-05 s⁻¹ (human patients, plasma; oral, 75 mg twice daily, day 1 single dose, added: fulvestrant).
`CC[C@H](C)CCCCC(=O)N[C@@H](CCN)C(=O)N[C@H](C(=O)N[C@@H](CCN)C(=O)N[C@H]1CCNC(=O)[C@H]([C@@H](C)O)NC(=O)[C@H](CCN)NC(=O)[C@H](CCN)NC(=O)[C@H](CC(C)C)NC(=O)[C@@H](Cc2ccccc2)NC(=O)[C@H](CCN)NC1=O)[C@@H](C)O`: “AUC(0-24 h) at steady state” 73.4 µg·h/mL (critically ill patients, moderate initial AUC group, plasma; dose not given, median).
`C[C@]1(O)C[C@@](N)(c2ccc(-c3nc4n(c3-c3ccccc3)COc3ccncc3-4)cc2)C1` — result for “patients with Nausea TEAE”: 11.1% (human, advanced or metastatic solid tumours; once daily, dose escalation total, any grade).
`CC/C(=C(\c1ccccc1)c1ccc(OCCN(C)C)cc1)c1ccccc1` — result for “elimination rate constant”: 3.32e-05 s⁻¹ (CD-1 mouse, male, lung; intraperitoneal, 1 mg/kg).
The tissue uptake of `C[C@@H]1NC(=O)[C@H](CCCCNC(=O)CO/N=C/C(=O)NCCCC[C@@H]2NC(=O)[C@@H](Cc3ccccc3)NC(=O)[C@H](CC(=O)O)NC(=O)CNC(=O)[C@H](CCCNC(=N)N)NC2=O)NC(=O)CNC(=O)[C@@H]2CCCN2C(=O)[C@H](CCCCNC(=O)CO/N=C/C(=O)NCCCC[C@@H]2NC(=O)[C@@H](Cc3ccccc3)NC(=O)[C@H](CC(=O)O)NC(=O)CNC(=O)[C@H](CCCNC(=N)N)NC2=O)NC(=O)[C@H](CCCCNC(=O)[C@H](CCCCN)NC(=O)[C@H](Cc2ccccc2)NC(=O)CNC(=O)CN2CCCNCCNCCCNCC2)NC(=O)[C@H](CCCCNC(=O)CO/N=C/C(=O)NCCCC[C@@H]2NC(=O)[C@@H](Cc3ccccc3)NC(=O)[C@H](CC(=O)O)NC(=O)CNC(=O)[C@H](CCCNC(=N)N)NC2=O)NC(=O)CNC(=O)[C@@H]2CCCN2C(=O)[C@H](CCCCNC(=O)CO/N=C/C(=O)NCCCC[C@@H]2NC(=O)[C@@H](Cc3ccccc3)NC(=O)[C@H](CC(=O)O)NC(=O)CNC(=O)[C@H](CCCNC(=N)N)NC2=O)NC1=O` [copper-64 labelled] is reported as 3.31 ± 0.42 %ID/g (normal mice, spleen; intravenous, 0.74 MBq, 24 h post-injection).
For `C[C@@H](NC(=O)N1C(=O)[C@H](Cc2ccnc(N)c2)[C@H]1C(=O)O)C1CCCCC1`, “incidence of hypokalemia” read 12.5% (healthy adult Chinese volunteers; continuous intravenous infusion, 1.0 mg/kg/h, 5-day infusion, CTCAE 5.0 grading).
With `Clc1ccccc1CNCC1CCC(CNCc2ccccc2Cl)CC1` (stereo not shown) the IC50 was 20.9 ± 1.36 µM (Cholinesterase (BCHE, Homo sapiens, UniProt P06276); inhibitor; with Triton).
With `O=c1c2cc(Cl)ccc2[nH]c(=S)n1Cc1cccnc1` the parent remaining was ≤ 97.5% (human liver microsomes; 10 µM, 1 h, pH 7.4, added: glutathione).
`CC(=O)N(C)[C@H]1CCN(C(=O)c2cnc3c(c2)C[C@](C)(c2ccc(F)cc2)N3)C1` — result for “subjects with severe AEs”: 0% (healthy male human; oral, 60 mg once daily, multiple rising dose, added: midazolam).
`CCOc1cc(Oc2ccc(C(F)(F)F)cc2Cl)ccc1[N+](=O)[O-]` — result for “final body weight”: 145 ± 7.52 g (rat male; 0.8125 mg/kg, 8 days).
`[Cl][212Pb][Cl]` gave a tissue uptake of 0.98 ± 0.3 %ID/g (athymic mice, C4-2 xenograft, heart; intravenous, 2 h, 212Pb-labelled).
For `C[C@]1(CO)Cc2ncn(-c3ccc(C#N)c(Cl)c3)c2C(=O)O1`, “drug-related Somnolence incidence” read 0% (healthy humans; concentration not given, food-effect part total).
`CN[C@@H](C)C(=O)N[C@H]1CN(S(=O)(=O)c2cccc(S(=O)(=O)N3CC[C@H]4CC[C@@H](C(=O)NC(c5ccccc5)c5ccccc5)N4C(=O)[C@@H](NC(=O)[C@H](C)NC)C3)c2)CC[C@H]2CC[C@@H](C(=O)NC(c3ccccc3)c3ccccc3)N2C1=O`: “treatment-related facial nerve disorder incidence” 0% (patients with advanced solid tumours; 0.3 mg, phase I monotherapy).
For `O=C(O)c1cc(NC(=O)C2CC2c2ccccc2)ccc1O` (stereo not shown), tolerability read “not toxic” (athymic nude mice; i.p., 15 mg/kg once daily, 3 days).
Under centre time, `CC(C)C[C@H](NC(=O)[C@H](CCC(N)=O)NC(=O)[C@H](C)NC(=O)[C@H](C)NC(=O)[C@H](CCCNC(=N)N)NC(=O)[C@H](CCCNC(=N)N)NC(=O)[C@H](CCCNC(=N)N)NC(=O)[C@H](CC(C)C)NC(=O)[C@H](Cc1c[nH]cn1)NC(=O)[C@@H](NC(=O)[C@H](CCCCN)NC(=O)[C@H](CCCNC(=N)N)NC(=O)[C@H](CCCNC(=N)N)NC(=O)[C@H](CCCNC(=N)N)NC(=O)[C@H](CCC(N)=O)NC(=O)[C@H](CCCNC(=N)N)NC(=O)[C@H](CCCNC(=N)N)NC(=O)[C@H](CCCCN)NC(=O)[C@H](CCCCN)NC(=O)[C@H](CCCNC(=N)N)NC(=O)CNC(=O)[C@@H](N)Cc1ccc(O)cc1)[C@@H](C)O)C(=O)N[C@@H](CCCCN)C(N)=O` is recorded as “no effect” (open field test; rat; intra-CA1 bilateral, dose not given, 5 min).
For `CC(C)C[C@@H]1NC(=O)CNC(=O)[C@H](CC(N)=O)NC(=O)[C@H](CCCCN)NC(=O)[C@H]([C@@H](C)O)NC(=O)[C@@H]2CSSC[C@@H]3NC(=O)[C@H]([C@@H](C)O)NC(=O)CNC(=O)CNC(=O)[C@H](C(C)C)NC(=O)[C@@H]4CSSC[C@H](NC(=O)[C@H]([C@@H](C)O)NC(=O)[C@H](CSSC[C@H](NC(=O)[C@H](C(C)C)NC(=O)[C@@H]5CCCN5C1=O)C(=O)NCC(=O)N[C@@H](CCC(=O)O)C(=O)N[C@@H]([C@@H](C)O)C(=O)N4)NC(=O)CNC(=O)[C@@H]1CCCN1C(=O)[C@H]([C@@H](C)O)NC(=O)[C@H](CC(N)=O)NC3=O)C(=O)N[C@@H](CO)C(=O)N[C@@H](Cc1c[nH]c3ccccc13)C(=O)N1CCC[C@H]1C(=O)N[C@@H](C(C)C)C(=O)N2`, the remaining peptide was 91.3 ± 0.5% (HPLC; ammonium bicarbonate; 180 µM, 14 days, pH 9.0, 25 °C, deamidation stability).
For `O=C(O)CCC(CP(=O)(O)O)C(=O)O` (stereo not shown), the relative error was 12.7% (rat, processed derivatized plasma; 0.3 µg/mL, 18 h, 10 °C, autosampler stability; reference: nominal concentration).
`COc1cc2c(Oc3ccc4[nH]c(C)cc4c3F)ccnc2cc1OCC1(N)CC1`: “grade 1 or 2 mouth ulcer” 0% (paediatric recurrent refractory sarcoma; 8 mg).
With `c1ccc2c(c1)-c1cccc3c1c-2cc1ccccc13` the log K(PDMS-water) was 5.18 ± 0.05 (fresh water; 12 (unit not given), 20 °C, S30-1 sampler, 30 µm).
Under “relative organ weight”, `O=C(O)CCCOc1ccc(F)cc1-c1cc(-c2ccccc2C(F)(F)F)n(-c2ccccc2)n1` is recorded as 0.49 ± 0.02 g% (male Crl:CD(SD) rats, brain; intravenous, 25 µg/kg, 14 d).
The log K(PDMS-water) of `c1ccc2c(c1)c1cccc3ccc4cccc2c4c31` is reported as 5.12 ± 0.05 (fresh water; 12 (unit not given), 20 °C, S30-1 sampler, 30 µm).
Under “recovery in faeces”, `CC(C)CC(=O)OC[C@H]1O[C@@](C#N)(c2ccc3c(N)ncnn23)[C@H](O)[C@@H]1O` is recorded as 0.0506% (Sprague-Dawley rat, female, faeces; 80 mg/kg, time not given; reference: dose).
`C=CCc1ccccc1OCC(O)CNC1(C)CCC(C(C)(C)NC(=O)CBr)CC1` (stereo not shown) has an IC50 of 3.16 µM (Plasmodium falciparum; 3D7).
`Clc1cc(Cl)cc(-c2cc(Cl)ccc2Cl)c1` gave a log K(PDMS-water) of 5.66 ± 0.03 (fresh water; 20 °C, SSP sampler, 100 µm).

Repeated from above:
With `COc1ccnc(C(=O)N[C@H]2COC(=O)[C@H](Cc3ccccc3)[C@@H](OC(=O)C(C)C)[C@H](C)OC2=O)c1OCOC(=O)C(C)C` the storage stability was 3 months (bovine liver; -18 °C).
`CC(=O)c1c(C)c2cnc(Nc3ccc(C4CCN(CCS(C)(=O)=O)CC4)cn3)nc2n(C2CCCC2)c1=O` — result for “elimination rate constant”: 4.17e-05 s⁻¹ (human patients, plasma; oral, 75 mg twice daily, day 1 single dose, added: fulvestrant).
